Experimental data gathered from unrelated publications.
Parts stem from different laboratories: compare values within a part only.
Chain of UniProt Q8IY84 (whole entry, looked up): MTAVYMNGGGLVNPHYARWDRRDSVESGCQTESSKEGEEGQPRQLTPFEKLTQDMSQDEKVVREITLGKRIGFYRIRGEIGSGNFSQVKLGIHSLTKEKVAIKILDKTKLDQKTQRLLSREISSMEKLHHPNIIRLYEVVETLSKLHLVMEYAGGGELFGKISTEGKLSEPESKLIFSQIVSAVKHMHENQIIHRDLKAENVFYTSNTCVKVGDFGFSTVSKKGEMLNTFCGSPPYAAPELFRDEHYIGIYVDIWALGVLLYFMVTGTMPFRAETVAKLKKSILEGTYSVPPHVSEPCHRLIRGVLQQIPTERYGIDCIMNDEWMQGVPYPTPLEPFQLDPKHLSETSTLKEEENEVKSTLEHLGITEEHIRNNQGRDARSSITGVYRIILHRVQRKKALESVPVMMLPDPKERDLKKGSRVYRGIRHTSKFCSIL
Chain of UniProt Q9UKI8 (whole entry, looked up): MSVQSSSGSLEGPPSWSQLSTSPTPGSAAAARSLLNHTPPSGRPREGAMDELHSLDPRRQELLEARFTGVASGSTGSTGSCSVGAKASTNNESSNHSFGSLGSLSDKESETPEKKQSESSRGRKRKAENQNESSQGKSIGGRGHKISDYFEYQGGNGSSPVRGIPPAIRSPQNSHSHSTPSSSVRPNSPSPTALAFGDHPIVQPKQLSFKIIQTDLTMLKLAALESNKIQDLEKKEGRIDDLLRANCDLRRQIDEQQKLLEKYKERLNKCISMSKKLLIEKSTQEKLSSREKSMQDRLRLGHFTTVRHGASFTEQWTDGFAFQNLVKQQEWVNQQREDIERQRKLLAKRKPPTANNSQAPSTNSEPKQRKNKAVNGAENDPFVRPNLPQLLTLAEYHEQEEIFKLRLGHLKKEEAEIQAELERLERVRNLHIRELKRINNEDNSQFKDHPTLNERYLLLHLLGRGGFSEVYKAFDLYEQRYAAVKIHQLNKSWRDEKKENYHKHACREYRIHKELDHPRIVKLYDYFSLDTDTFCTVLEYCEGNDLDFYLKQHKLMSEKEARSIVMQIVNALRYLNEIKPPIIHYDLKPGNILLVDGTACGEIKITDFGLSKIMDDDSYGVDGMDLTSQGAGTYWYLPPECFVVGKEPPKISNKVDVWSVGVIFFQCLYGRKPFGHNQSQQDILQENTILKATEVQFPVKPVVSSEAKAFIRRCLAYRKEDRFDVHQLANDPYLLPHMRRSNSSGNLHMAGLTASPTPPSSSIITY
Chain of UniProt O95819 (whole entry, looked up): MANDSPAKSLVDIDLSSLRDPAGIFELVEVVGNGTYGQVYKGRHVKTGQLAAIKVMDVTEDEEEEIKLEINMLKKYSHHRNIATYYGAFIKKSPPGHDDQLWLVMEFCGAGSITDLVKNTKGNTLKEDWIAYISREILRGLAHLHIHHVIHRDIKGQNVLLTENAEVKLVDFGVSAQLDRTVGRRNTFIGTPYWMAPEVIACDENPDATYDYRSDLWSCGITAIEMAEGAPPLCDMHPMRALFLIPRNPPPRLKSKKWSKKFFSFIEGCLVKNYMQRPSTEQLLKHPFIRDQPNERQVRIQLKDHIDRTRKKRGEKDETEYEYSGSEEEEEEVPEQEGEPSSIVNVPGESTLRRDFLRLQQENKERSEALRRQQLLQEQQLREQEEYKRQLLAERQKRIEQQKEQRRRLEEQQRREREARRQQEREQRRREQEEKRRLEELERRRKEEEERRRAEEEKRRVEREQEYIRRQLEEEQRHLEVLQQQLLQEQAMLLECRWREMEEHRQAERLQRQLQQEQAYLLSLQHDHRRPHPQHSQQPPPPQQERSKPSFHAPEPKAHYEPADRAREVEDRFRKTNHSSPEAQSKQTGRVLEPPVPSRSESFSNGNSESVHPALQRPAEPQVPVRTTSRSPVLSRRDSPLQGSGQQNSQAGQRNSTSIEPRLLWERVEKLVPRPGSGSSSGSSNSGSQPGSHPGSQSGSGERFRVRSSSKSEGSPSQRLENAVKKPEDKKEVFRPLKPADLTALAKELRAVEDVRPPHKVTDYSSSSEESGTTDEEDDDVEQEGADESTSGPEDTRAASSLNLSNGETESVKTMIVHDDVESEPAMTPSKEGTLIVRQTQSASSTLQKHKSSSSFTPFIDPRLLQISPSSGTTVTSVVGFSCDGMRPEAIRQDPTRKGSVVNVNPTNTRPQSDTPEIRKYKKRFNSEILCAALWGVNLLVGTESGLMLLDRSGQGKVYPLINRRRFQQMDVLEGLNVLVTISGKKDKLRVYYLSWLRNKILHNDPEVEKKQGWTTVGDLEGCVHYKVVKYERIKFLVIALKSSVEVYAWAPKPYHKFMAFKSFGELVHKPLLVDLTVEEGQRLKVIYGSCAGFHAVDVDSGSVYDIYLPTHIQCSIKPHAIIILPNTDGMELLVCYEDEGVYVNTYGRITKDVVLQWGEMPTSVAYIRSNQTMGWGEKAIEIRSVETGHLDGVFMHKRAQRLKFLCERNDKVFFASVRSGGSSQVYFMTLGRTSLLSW
Chain of UniProt Q04771 (whole entry, looked up): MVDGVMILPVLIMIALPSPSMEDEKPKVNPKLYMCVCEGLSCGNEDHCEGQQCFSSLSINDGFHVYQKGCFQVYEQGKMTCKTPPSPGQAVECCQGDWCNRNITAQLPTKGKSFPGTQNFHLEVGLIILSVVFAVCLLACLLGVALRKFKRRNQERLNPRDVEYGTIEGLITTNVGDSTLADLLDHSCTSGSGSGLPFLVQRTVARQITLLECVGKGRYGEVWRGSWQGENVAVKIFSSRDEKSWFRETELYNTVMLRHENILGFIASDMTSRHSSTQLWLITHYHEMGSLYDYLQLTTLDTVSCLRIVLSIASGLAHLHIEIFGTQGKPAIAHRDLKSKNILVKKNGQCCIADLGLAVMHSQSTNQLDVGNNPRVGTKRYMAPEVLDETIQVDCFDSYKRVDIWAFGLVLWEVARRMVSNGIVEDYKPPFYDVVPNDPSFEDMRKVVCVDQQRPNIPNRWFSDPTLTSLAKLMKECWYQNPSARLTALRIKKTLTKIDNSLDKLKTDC
Chain of UniProt P21675 (whole entry, looked up): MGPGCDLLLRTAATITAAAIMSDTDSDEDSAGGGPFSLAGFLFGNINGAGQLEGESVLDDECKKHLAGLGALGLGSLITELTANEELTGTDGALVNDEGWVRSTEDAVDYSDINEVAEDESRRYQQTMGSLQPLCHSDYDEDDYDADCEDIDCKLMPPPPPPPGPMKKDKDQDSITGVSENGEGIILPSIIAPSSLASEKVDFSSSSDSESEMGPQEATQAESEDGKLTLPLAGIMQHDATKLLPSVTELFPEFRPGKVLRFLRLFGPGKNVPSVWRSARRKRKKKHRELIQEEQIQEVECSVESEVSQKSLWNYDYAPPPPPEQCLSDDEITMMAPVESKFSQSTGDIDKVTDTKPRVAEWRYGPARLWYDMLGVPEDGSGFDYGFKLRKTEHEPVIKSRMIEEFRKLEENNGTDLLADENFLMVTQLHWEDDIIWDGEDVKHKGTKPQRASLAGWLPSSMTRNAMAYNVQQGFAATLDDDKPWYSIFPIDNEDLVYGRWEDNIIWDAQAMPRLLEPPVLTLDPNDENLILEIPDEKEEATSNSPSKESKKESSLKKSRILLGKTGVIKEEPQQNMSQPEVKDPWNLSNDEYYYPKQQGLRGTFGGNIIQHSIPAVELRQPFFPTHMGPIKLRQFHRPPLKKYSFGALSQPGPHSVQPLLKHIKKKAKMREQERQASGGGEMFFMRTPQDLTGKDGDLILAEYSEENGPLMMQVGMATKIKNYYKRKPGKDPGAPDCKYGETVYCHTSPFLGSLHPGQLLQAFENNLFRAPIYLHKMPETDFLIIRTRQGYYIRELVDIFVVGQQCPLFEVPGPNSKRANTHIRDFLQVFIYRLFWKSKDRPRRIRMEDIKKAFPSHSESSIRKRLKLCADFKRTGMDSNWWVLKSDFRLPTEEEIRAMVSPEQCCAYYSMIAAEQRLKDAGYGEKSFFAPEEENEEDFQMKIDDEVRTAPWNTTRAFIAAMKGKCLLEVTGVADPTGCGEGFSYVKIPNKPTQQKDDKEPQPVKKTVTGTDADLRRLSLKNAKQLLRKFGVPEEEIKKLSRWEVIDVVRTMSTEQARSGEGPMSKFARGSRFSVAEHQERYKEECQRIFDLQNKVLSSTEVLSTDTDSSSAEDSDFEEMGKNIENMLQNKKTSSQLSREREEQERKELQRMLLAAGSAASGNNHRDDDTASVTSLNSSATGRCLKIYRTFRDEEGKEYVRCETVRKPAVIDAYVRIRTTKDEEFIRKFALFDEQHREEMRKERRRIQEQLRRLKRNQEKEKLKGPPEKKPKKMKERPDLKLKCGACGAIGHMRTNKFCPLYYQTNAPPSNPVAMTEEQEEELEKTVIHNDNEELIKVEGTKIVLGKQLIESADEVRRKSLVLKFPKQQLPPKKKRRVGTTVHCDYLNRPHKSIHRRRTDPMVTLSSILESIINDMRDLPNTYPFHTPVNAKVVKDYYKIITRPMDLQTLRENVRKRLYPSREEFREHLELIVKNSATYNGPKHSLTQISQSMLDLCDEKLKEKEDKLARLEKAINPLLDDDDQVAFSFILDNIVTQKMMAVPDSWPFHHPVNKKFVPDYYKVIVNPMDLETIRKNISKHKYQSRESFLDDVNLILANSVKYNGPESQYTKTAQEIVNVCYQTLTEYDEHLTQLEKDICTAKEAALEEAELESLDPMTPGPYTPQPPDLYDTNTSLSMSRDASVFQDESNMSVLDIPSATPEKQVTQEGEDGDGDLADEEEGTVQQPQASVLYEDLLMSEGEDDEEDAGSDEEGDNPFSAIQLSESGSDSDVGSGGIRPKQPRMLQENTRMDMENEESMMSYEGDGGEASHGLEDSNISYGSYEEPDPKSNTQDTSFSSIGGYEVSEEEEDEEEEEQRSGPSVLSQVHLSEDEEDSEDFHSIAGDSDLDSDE

Series 1
Cell line: HaCaT
Tested at: 100 µM
Time: 18 h
Compound | viability
Cc1nccn1CC1CCc2c(c3ccccc3n2C)C1=O (stereo not drawn) | 65%
O=C(O)c1cccnc1 | 111%
COC(=O)C1=CO[C@@H](O[C@@H]2O[C@H](CO)[C@@H](O)[C@H](O)[C@H]2O)[C@@H]2[C@@H](C)[C@@H](O)C[C@H]12 | 112%
C[C@]12C=CC(=O)N[C@@H]1CC[C@@H]1[C@@H]2CC[C@]2(C)[C@@H](C(=O)Nc3cc(C(F)(F)F)ccc3C(F)(F)F)CC[C@@H]12 | 112%
CCC[C@H](NC(=O)[C@@H]1[C@H]2CCC[C@H]2CN1C(=O)[C@@H](NC(=O)[C@@H](NC(=O)c1cnccn1)C1CCCCC1)C(C)(C)C)C(=O)C(=O)NC1CC1 | 58.6%
Cc1cc2nc3c(=O)[nH]c(=O)nc-3n(C[C@H](O)[C@H](O)[C@H](O)COP(=O)(O)O)c2cc1C | 140%

Series 2
Compound: Oc1ccc(-c2nc(-c3ccncc3)c(-c3ccc(F)cc3)[nH]2)cc1
Read-out: thermal stability
Method: DSF
Tested at: 10 µM
target | ΔTm
Bromodomain-containing protein 4, BD2 (BRD4, Homo sapiens, UniProt O60885) | 0.83 °C
Bromodomain testis-specific protein, BD2 (BRDT, Homo sapiens, UniProt Q58F21) | 0.7 °C
Transcription initiation factor TFIID subunit 1, BD1 (TAF1, Homo sapiens, UniProt P21675) | -0.08 °C
Bromodomain-containing protein 3, BD2 (BRD3, Homo sapiens, UniProt Q15059) | 0.8 °C
ATAD2B (Homo sapiens, UniProt Q9ULI0) | 0.15 °C
Bromodomain adjacent to zinc finger domain protein 2B, bromodomain (BAZ2B, Homo sapiens, UniProt Q9UIF8) | 0.12 °C

Series 3
Organism: Plasmodium berghei
Mode: inhibitor
Cells: Huh-7
Strain: liver stage
Tested at: 10 µM
Time: 24 h
Reference: untreated control
Structure (SMILES) | infection rate
C[N+](C)(C)C[C@H](O)CC(=O)[O-] | 114%
COCCc1ccc(OCC(O)CNC(C)C)cc1 (stereo not drawn) | 98.2%
C[N+]1(C)CCCC(OC(=O)C(O)(c2ccccc2)c2ccccc2)C1 (stereo not drawn) | 96.3%
Cc1cc(C)cc(OCC2CNC(=O)O2)c1 (stereo not drawn) | 61.2%
Nc1nc(F)nc2c1ncn2[C@@H]1O[C@H](COP(=O)(O)O)[C@@H](O)[C@@H]1O | 67.7%

Series 4
SMILES: N#CC1(c2ccccn2)CCN(Cc2cc(C(=O)N3CCCC3)c(=O)n3ccccc23)CC1
Read-out: cell-free assay
Method: competition with immobilised ligand
Tested at: 1 µM
target | remaining binding [%]
Tyrosine-protein kinase ABL1, phosphorylated (ABL1, Homo sapiens, UniProt P00519, F317L) | 100
RET (Homo sapiens, UniProt P07949, V804L) | 92
Tyrosine-protein kinase ABL1, non-phosphorylated (ABL1, Homo sapiens, UniProt P00519, Q252H) | 97
GRK3 (Homo sapiens, UniProt P35626) | 77
MAP4K4 (Homo sapiens, UniProt O95819) | 87
NEK1 (Homo sapiens, UniProt Q96PY6) | 91
PRKCH (Homo sapiens, UniProt P24723) | 100
NIM1K (Homo sapiens, UniProt Q8IY84) | 95
LCK (Homo sapiens, UniProt P06239) | 100
Non-receptor tyrosine-protein kinase TYK2, JH2 (TYK2, Homo sapiens, UniProt P29597) | 100
MAP3K10 (Homo sapiens, UniProt Q02779) | 100
PIK3CG (Homo sapiens, UniProt P48736) | 75
TLK1 (Homo sapiens, UniProt Q9UKI8) | 85
ITK (Homo sapiens, UniProt Q08881) | 95
MTOR (Homo sapiens, UniProt P42345) | 58
TAOK2 (Homo sapiens, UniProt Q9UL54) | 100
MARK3 (Homo sapiens, UniProt P27448) | 87
PDPK1 (Homo sapiens, UniProt O15530) | 81
ACVR1 (Homo sapiens, UniProt Q04771) | 83
FGFR3 (Homo sapiens, UniProt P22607, G697C) | 98
STK33 (Homo sapiens, UniProt Q9BYT3) | 62
Ribosomal protein S6 kinase alpha-1, C-terminal kinase domain (RPS6KA1, Homo sapiens, UniProt Q15418) | 79
CLK3 (Homo sapiens, UniProt P49761) | 99
Tyrosine-protein kinase ABL1, phosphorylated (ABL1, Homo sapiens, UniProt P00519, T315I) | 100
EGFR (Homo sapiens, UniProt P00533) | 100

Series 5
Species: human
Sample: microsomes or S9
Tested at: 2 µM
Time: 0.5 h
Structure (SMILES) | remaining compound
CN(C)S(=O)(=O)N1CCN(Cc2c(O)occ(CN3CCOCC3)c2=O)CC1 | 93.4%
Cn1c(=O)c(-c2ccc3ccccc3n2)cc2cc(Br)ccc21 | 6.58%
CCN(CC)Cc1ccc2c(c1)CN(C(=O)Nc1ccc(OC)cc1)CCO2 | 35.2%
O=C1Nc2c(c3cc(O)ccc3n2Cc2ccccc2)CNC1Cc1ccccc1 (stereo not drawn) | 0%
CCCc1nc(N2CCN(CC(=O)N3CCCC3)CC2)c(C#N)c2c1CCC2 | 41.7%
CC(C)S(=O)(=O)c1ccccc1C(=O)N1CC(C)(C)c2c(Cl)cccc21 | 32.1%
O=C(Nc1cccc2c1OCCC2O)c1cc2sccc2[nH]1 (stereo not drawn) | 79.8%
CC(C)(C)C(=O)N1CC(C(=O)NC2CCCC2)C2(CCOCC2)C1 (stereo not drawn) | 75.8%
COCCCn1cnnc1C(C)NC(=O)c1cnn[nH]1 (stereo not drawn) | 80.4%
